# Measured values from different studies.
# A part holds a random share of what one study measured.

# Study 1 — method: RNA Bind-n-Seq; molecule type: RNA; sample: in vitro; tested at: not given; notes: RNA with constant flanks, ends assumed; reference: input RNA pool; reading: higher = stronger binding
# Target: RING finger protein unkempt homolog, zinc fingers 1-6, GST-SBP tag (UNK, Homo sapiens, UniProt Q9C0B0, residues 30-357)
# UniProt Q9C0B0, sequence (30-357, looked up): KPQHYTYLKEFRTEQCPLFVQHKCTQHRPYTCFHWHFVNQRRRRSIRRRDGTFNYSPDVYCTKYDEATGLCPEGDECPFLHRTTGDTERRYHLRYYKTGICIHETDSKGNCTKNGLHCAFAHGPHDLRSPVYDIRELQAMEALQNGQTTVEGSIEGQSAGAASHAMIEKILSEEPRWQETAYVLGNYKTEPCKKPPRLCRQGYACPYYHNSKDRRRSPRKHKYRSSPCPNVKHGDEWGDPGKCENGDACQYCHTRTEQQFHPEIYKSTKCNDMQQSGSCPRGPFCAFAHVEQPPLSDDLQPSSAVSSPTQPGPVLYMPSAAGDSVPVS
Strand,bound/input enrichment [ratio]
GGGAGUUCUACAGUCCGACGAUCGCAAGAAUGCAGAGAGCUGGAAUUCCUUGUCCAACAGUUGUACUACUGAAGAAACACAUUUCCGUUAUGUCUUUUAUUGGCCAUGAUCAAGUUCCAGCCCCUAAAUUAAAAGAAGUAAAGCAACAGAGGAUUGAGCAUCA,0.117
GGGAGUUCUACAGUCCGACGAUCACCACCCUCUCUGGGGUUCAAGAAGAGUCCGCUCUUUGCUAUCUUCUCCAGGUUGAUGAGUUCCGGUUUUUGUUGGACUGUGGCUGGGAUGAACACUUCUCUGUGGACAUUAUUGAUUCCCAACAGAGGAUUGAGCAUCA,0.0408
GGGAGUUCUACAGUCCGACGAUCAUUUUUGACCUGUACAGAAGAAGAUGGGGUGCUGGUUUACCACCAUGCCCAGGAUGUCAUUUCCGAAGUCAUUUACACUGACCCUGUGGAUCUUUCUGUGGGCACCGUGGCAGAAAUCACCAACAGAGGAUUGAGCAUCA,0.125
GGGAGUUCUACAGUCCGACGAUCAUAAUAAAUUAAAUAAUUGGAUCCUAGGCAUACCAAUAAAUGUUAUUUGGGGAAAGAAGCCCGCACUAUCUCAUGCAGUGAGAAUAACGGGUUCUAGUGAAUUAUCCUAUCUACACUACCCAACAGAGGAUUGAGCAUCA,0.857
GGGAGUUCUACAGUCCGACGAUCCCUCCCAAGUAGCUGGGACUACAGGUGUGUGCCACUAAGCUCAGCUAAUUUUUGUAUUUUCCGCCGAGACGGGGUUUCACCAUUUUGACCAGGAUGGUCUUGAUCUCUUGACCUCAUGAUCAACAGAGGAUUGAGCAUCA,0.24
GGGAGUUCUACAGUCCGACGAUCCAUAUUUUAGAGGUAAUCAUGUCUUCUAGAUUACUUGUGUGCAUUUGAUUGGGCUUCUUGUUCCGGGUCCCUUUUAAAAUUAAUUCAUUAGAUUGAAAAAUGUAUUCUAUAUUUCUGAUACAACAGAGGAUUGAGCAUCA,6.64
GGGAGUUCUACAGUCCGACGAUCAGUACGCGAGAGCGGCUUCUGUCUGCGCUGGAAGAUCUGGAGGUCUUGUCGAGGGAACUCACCGAAAUGCUUGCAAUUUCAAGAAAUCAGAAGCUAUUACAGCUGGAAGAGGAAAACCAGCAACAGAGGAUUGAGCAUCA,0.0898
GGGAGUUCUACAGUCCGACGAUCCUGACUUUAUUUGGAAUUGCUGAUAAGAUCUCCUUUGACCUCAGCCUGGCUCGGGGCCCCGACUACUAUACAGGAGUGAUCUAUGAAGCAGUGCUGCUGCAGACCCCAACUCAGGCUGGGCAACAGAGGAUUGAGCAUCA,0.123
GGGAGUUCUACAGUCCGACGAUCGCUGGAUCUUCUAAAUACCAGUGGGGCAUUAUGAAAUCCCUUGGCCUGUCUGAUGAAGAGACCGUAAAAUUUUCUGAAGCAGAACAUUGGCUUGAUUAUUUCCCGCCACUGGCUAUUCAGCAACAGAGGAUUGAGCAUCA,0.102
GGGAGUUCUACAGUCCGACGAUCCGGGGGAUGAGUGACAGAGAGCGUCCUAUGCCUUGGAGACUGUCAUGGCAUAAGCUGUGCCCGCACCUCCUCAGGAAAUGAGAUUGAUUUUUACAACAGCCAAUAACGUUUGCACUUUAUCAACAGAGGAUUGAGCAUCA,0.0951
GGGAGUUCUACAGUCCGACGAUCACUGAAAAUAAAGAUAUUUACUGGAGAAACGUGAGAGAAAAGUUGUCAGUAGGAGAGAGCAUCCGUUUGGAUGAGUUCAAGUCCUUUUGCCAUUUUACAACGCAUUUGGAAGACUUUGCUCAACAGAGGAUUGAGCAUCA,0.307

# Study 2 — method: universal PBM; molecule type: double-stranded DNA, one strand shown; sample: in vitro; tested at: not given; reading: higher = stronger binding
# Target: Sal-like protein 4, full length isoform B (SALL4, Homo sapiens, UniProt Q9UJQ4-2, residues 1-616)
# Notes: 8-mer, flanks averaged, mean of replicates
# Construct (chain): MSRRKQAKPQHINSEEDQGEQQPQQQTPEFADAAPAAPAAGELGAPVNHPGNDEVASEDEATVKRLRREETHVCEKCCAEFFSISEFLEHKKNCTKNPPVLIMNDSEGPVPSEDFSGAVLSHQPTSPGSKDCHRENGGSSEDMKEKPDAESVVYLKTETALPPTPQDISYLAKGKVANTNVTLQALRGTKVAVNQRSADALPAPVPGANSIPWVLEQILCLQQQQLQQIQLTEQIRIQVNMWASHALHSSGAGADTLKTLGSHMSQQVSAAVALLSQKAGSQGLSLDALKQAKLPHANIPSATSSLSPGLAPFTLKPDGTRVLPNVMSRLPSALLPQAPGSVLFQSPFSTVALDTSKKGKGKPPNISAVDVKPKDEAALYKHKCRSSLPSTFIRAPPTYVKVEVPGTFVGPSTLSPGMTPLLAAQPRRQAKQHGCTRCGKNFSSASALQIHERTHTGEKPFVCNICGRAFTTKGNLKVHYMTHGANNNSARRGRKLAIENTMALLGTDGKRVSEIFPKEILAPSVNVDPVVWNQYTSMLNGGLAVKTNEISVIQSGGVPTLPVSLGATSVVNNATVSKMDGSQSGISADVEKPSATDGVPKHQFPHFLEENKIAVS
Strand,E-score
CGTGTGAA,-0.053
ATGTCCAA,0.111
CGGGGTCC,-0.361
GACTAGTA,0.154
CGCCGTAG,-0.192
AGTTAGGC,-0.0507
AACCATGT,0.0183
CGCCCCGA,-0.405
ACCACGGG,-0.27
ATCAAGGC,0.0465
AGCACCGA,-0.108
CGAATGTC,-0.0323
GCCCTGAC,-0.256
ATGCTGCC,-0.0994
GAAGCGGC,-0.24
GGCGTACC,-0.245

# Study 3 — method: RNA Bind-n-Seq; molecule type: RNA; sample: in vitro; tested at: 200 nM; notes: whole 134-nt RNA, ends assumed; added: 150 mM LiCl; reference: input library; reading: higher = stronger binding; each molecule: 7-deaza-guanosine replaces G
# Target: Fragile X messenger ribonucleoprotein 1, C-terminal low-complexity region (Fmr1, Mus musculus, UniProt P35922)
Strand,log2 enrichment
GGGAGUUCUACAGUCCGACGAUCCACAGACAACACGCACCCAAAAAGACACAGAGGGAAGGGGUUGGGAUGGGGACAGGGUGCACAGCAGGGCGGGGUAGGACCCCAGCCCCUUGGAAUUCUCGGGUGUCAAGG,0.563
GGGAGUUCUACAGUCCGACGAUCCUGUGCUACACAUCGUAUGUACCGAAUCGGGGUUUUUUUGGGGUUUUUGGGGUUUUUGGGGAAAGUAUUAUGUUACGCCGUUCGGAUCUGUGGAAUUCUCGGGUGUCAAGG,1.62
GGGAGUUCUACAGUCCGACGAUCAGUCCUGUGCUACACAUCGUAUGUACCGAAUCGGGGAAAGGGGUUUGGGGAAAGGGGAAAGUAUUAUGUUACGCCGUUCGGAUCUGCACUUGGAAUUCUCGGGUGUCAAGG,-0.913
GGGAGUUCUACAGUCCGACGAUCGCAGGAAGUAAAAACAAAUGGAAAUGCUUCUGAUAGUGGCAGGGGUGGGGGUUGCUAAGGAAAGGGUGGGAUGGGAGUGGGUAAAGAGUUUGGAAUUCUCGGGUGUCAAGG,1.73
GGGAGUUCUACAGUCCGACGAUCGUCCUGUGCUACACAUCGUAUGUACCGAAUCAAACCCCCAAACCCCCAAAUUUUUAAAAAAGUAUUAUGUUACGCCGUUCGGAUCUGCACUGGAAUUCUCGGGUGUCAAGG,1.55
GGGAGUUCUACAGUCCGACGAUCCACAAAAAACACGCACCCACACAGACACAGAGGGAAGGGGUUGGGAUGGGGACAGGGUGCACAGCAGGGCGGGGUAGGACCCCAGCCCCUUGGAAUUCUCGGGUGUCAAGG,0.778
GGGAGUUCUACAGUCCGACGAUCUAACUUUAGAGGAGGAUCUGAUGGAUAUGGCAGUGGACGUGGAUUUGGGGAUGGCUAUAAUGGGUAUGGAGUAGGACCUGGAGGUGGCAAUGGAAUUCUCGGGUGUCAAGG,0.46
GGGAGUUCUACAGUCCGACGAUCCAAGUCCUGUGCUACACAUCGUAUGUACCGAAUCGGGCCCCGGCCCCGGCCCCGGAAAGUAUUAUGUUACGCCGUUCGGAUCUGCACUUCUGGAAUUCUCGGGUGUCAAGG,-1.27
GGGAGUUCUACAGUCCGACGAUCCUCAAGUCCUGUGCUACACAUCGUAUGUACCGAAUCGGGUUGGGUUGGGUUGGAAAGUAUUAUGUUACGCCGUUCGGAUCUGCACUUCCAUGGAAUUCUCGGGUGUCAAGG,-0.136
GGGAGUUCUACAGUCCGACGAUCUGGCCCUGGUGGCAUGCGGGGAGGAAGAGGUGGCCUCAUGGAUCGUGGUGGUCCCGGUGGAAAGUUCAGAGGUGGCCGUGGUGGAGACAGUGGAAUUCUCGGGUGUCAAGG,0.0825
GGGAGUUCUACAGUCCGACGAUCUGGCCCUGGUGGCAUGCGGGGAGGAAGAGGUGGCCUCAUGGAUCGUGGUGGUCCCGGUGUAAUGUUCAGAGGUGGCCGUGGUGGAGACAGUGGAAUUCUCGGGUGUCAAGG,-0.496

# Study 4 — method: RNA Bind-n-Seq; molecule type: RNA; sample: in vitro; tested at: 365 nM; reference: no-protein control; reading: higher = stronger binding
# Target: RNA binding protein fox-1 homolog 2, RRM domain, GST-SBP tag (RBFOX2, Homo sapiens, UniProt O43251-10, residues 100-194)
# Notes: natural RNA segment, single round, ends assumed
# Target sequence (chain): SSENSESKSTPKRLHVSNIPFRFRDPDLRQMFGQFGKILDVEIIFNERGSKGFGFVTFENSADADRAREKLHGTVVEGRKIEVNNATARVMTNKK
Strand,RBNS enrichment (R)
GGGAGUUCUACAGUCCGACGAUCCAUUUCUUUUAUUGUUUUAUGUGCCAAACCACGAAGUGCAUUGGGCUUCAAUCUCUGAACACUGUAGACCCAUUAGAAGACUGUUCCGAUUGUUACAAAUUGUAGUGCCUUGGAAUUCUCGGGUGCCAA,0.386
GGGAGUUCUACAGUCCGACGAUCCAGUGGAGCGAGCGGACAUUCUGAUCGCUGCAUUUCUUUAGAUCUCGGAGCUAAGUGUAUAUAUGAGUAGUUUGCCAAUGGAUAACACAGUGUAAACAGUAGACACCCAGUGGAAUUCUCGGGUGCCAA,0.689
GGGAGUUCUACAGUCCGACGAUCGCUUAGUCCCAAGAAGAGGGUGAAGACUCGGCUGAGUCACUUGUGUGUGACCCCUACCAGAACAGAGACUUUCCUCCUCUUGAAGUUCUCUGAGGGGCGCCAUCUUGACCUGGAAUUCUCGGGUGCCAA,0.311
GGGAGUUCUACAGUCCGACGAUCUCAUCCUUCCAGUUGUUGUGUAGCGUAUGGAACCAUGUCAUCCUUUUACUAGGCAAAUACACAUACUAUCUCACAUAGAUGAUUAUGAAACUGAAUGAAAACCUGUCAUGUGGAAUUCUCGGGUGCCAA,0.365
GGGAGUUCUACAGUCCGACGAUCACUUCUCCUGGAUCCAACCUGACAGGAGAUGACUGGAUUGCUGGGGUAGAGAAGGAAAGGCUGUCCCCGACAGCAGCCAGAAGUCUGUGGGAGUGAGGUCAUUCCUGACCUGGAAUUCUCGGGUGCCAA,0.292
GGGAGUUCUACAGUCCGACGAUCUUUUUAAAGUCCUAGUAGAAAAAGUCAAAUACAUCUGCAUUUAAUUUAUGUCUGCAUAUUCUUCUAGCUGAAUUUUUGAUUUUACUACAUUUGAUAUUUUUCUUUUUAGUUGGAAUUCUCGGGUGCCAA,1.17
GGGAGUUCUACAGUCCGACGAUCUCUCUUUGACCCGUUCUGGUCUAUUGUGUAAAUAUUUAUUUAGACUAUUUUGAUAAUACAUAUUAUUUACCCCACUGUAACAUCCUGUAAACUAAAUGCGUUUUUAAGCAUGGAAUUCUCGGGUGCCAA,1.06
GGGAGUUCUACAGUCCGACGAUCCUUCCUCCAUCUGAGAAGUGGCCCAUGUGCUUCAAGGCCCAGGAGGGAGAUCUGUCAGCUCAUUCUUGCCUUACUCCAAUGAUGGCCCAGGUGGAAAAGUAGCAGCUGUAUGGAAUUCUCGGGUGCCAA,0.44
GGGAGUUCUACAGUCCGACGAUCCACCUCAUUACUGGUGGAUAAUUUAUGUGAUGUGGAUUGCUGGUGUCCAGCAUGACCCAUAAACAGGUCAGAAGAAUGAUGGAAUGUUUUAGAAUAAACUCCUGCUUAUAUGGAAUUCUCGGGUGCCAA,1.33
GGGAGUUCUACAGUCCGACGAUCAUUUGGGAAUUGAAUGUGGCCUCAGAUUUCUUCUAGUACUUGUUUUCGAUACAUAAUUAUGGUUUCUGUAUAAGAAGGUAUUGGUUAAGUAUCACGUUUUCAGCCAUGUUUGGAAUUCUCGGGUGCCAA,1.36
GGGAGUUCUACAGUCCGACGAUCGGCAGGUUCUGUGGAAGAAGUUUUUUGCCUGUUACGGGAAACUCAUCACACAAGAAGAGACAACUUCACUUUGAACAUUAGAUCCACUCAAGAUUAGUCCACGAAUGAUCUGGAAUUCUCGGGUGCCAA,0.561
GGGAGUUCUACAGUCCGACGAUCAGCGUUGCCUUUUUAAAAAGGCACUCACCCUGAGUUGUUAAGAACUGGACCUGCCCCACCCUCAGAUUCCUUAAAGGAUGAAGAGUGUGCUGUACACUCAGCAUAUGUGCUGGAAUUCUCGGGUGCCAA,0.199

# A few entries again (study 2):
Strand,E-score
CGGGGTCC,-0.361
GGCGTACC,-0.245
CGCCGTAG,-0.192
ATGCTGCC,-0.0994
ACCACGGG,-0.27
